Measured values gathered from unrelated publications.
Protocols differ between the studies behind these lines. Numbers after ± are the reported error.

CCCC[C@H](NC(=O)CNC(=O)CNC(=O)c1ccc(NN)nc1)C(=O)N[C@H]1CC(=O)NCCCC[C@@H](C(N)=O)NC(=O)[C@H](Cc2c[nH]c3ccccc23)NC(=O)[C@H](CCCNC(=N)N)NC(=O)[C@@H](Cc2ccccc2)NC(=O)[C@H](Cc2c[nH]cn2)NC1=O [technetium-99m labelled]
uptake (C57 mouse, B16/F1 melanoma, spleen; 2 h, with: L-lysine 12 mg): 0.09 ± 0.06 %ID/g

N=C(N)NCCC[C@@H]1NC(=O)[C@H](CCCCNC(=O)CCOCCOCCOCCOCCNC(=O)CC[C@H](NC(=O)CCOCCOCCOCCOCCNC(=O)CC[C@H](NC(=O)CN2CCN(CC(=O)O)CCN(CC(=O)O)CCN(CC(=O)O)CC2)C(=O)NCCOCCOCCOCCOCCC(=O)N[C@@H](CCC(=O)NCCOCCOCCOCCOCCC(=O)NCCCC[C@@H]2NC(=O)[C@@H](Cc3ccccc3)NC(=O)[C@H](CC(=O)O)NC(=O)CNC(=O)[C@H](CCCNC(=N)N)NC2=O)C(=O)NCCOCCOCCOCCOCCC(=O)NCCCC[C@@H]2NC(=O)[C@@H](Cc3ccccc3)NC(=O)[C@H](CC(=O)O)NC(=O)CNC(=O)[C@H](CCCNC(=N)N)NC2=O)C(=O)NCCOCCOCCOCCOCCC(=O)NCCCC[C@@H]2NC(=O)[C@@H](Cc3ccccc3)NC(=O)[C@H](CC(=O)O)NC(=O)CNC(=O)[C@H](CCCNC(=N)N)NC2=O)NC(=O)[C@@H](Cc2ccccc2)NC(=O)[C@H](CC(=O)O)NC(=O)CNC1=O [indium-111 labelled]
tissue uptake (female athymic nude mice, kidney; intravenous, 3 µCi, 72 h, U-87 MG glioma xenograft): 3.1 ± 0.38 %ID/g

CCCC[C@H](NC(=O)CNC(=O)CNC(=O)CNC(=O)c1ccc(NN)nc1)C(=O)N[C@H]1CC(=O)NCCCC[C@@H](C(N)=O)NC(=O)[C@H](Cc2c[nH]c3ccccc23)NC(=O)[C@H](CCCNC(=N)N)NC(=O)[C@@H](Cc2ccccc2)NC(=O)[C@H](Cc2c[nH]cn2)NC1=O [technetium-99m labelled]
uptake (C57 mouse, B16/F1 melanoma, bone; intravenous, 2 h): 0.08 ± 0.06 %ID/g

N=C(N)NCCC[C@@H]1NC(=O)[C@H](CCCCNC(=O)CCOCCOCCOCCOCCNC(=O)CC[C@H](NC(=O)CCOCCOCCOCCOCCNC(=O)c2ccc(NN)nc2)C(=O)NCCOCCOCCOCCOCCC(=O)NCCCC[C@@H]2NC(=O)[C@@H](Cc3ccccc3)NC(=O)[C@H](CC(=O)O)NC(=O)CNC(=O)[C@H](CCCNC(=N)N)NC2=O)NC(=O)[C@@H](Cc2ccccc2)NC(=O)[C@H](CC(=O)O)NC(=O)CNC1=O [technetium-99m labelled]
tissue-to-tissue ratio (female athymic nude mice, U-87 MG glioma xenograft, tumour and lungs; intravenous, 2.5 µCi, 60 min; reference: tumour over lungs): 4.36 ± 0.54

N=C(N)NCCC[C@@H]1NC(=O)[C@H](CCCCNC(=O)CC[C@H](NC(=O)CCOCCOCCOCCOCCNC(=O)CN2CCN(CC(=O)O)CCN(CC(=O)O)CCN(CC(=O)O)CC2)C(=O)NCCCC[C@@H]2NC(=O)[C@@H](Cc3ccccc3)NC(=O)[C@H](CC(=O)O)NC(=O)CNC(=O)[C@H](CCCNC(=N)N)NC2=O)NC(=O)[C@@H](Cc2ccccc2)NC(=O)[C@H](CC(=O)O)NC(=O)CNC1=O [indium-111 labelled]
tissue uptake (female athymic nude mice, muscle; intravenous, 3 µCi, 4 h, U-87 MG glioma xenograft): 0.7 ± 0.41 %ID/g

C=Cc1c(C)c2cc3nc(c4c5[nH]c(cc6nc(cc1[nH]2)C(C)=C6CC)c(C)c5C(=O)C4)[C@@H](CCC(=O)NCC(=O)N1CCC[C@H]1C(=O)N[C@@H](CC(C)C)C(=O)NCC(=O)N[C@@H](Cc1ccccc1)C(=O)N[C@@H](CCCNC(=N)N)C(=O)N[C@H](C(=O)NCC(=O)N[C@@H](CCCCN)C(N)=O)C(C)C)[C@@H]3C
penetration depth (C57BL/6J mouse, DMM osteoarthritis model, knee articular cartilage; intra-articular, 6 h; reference: cartilage thickness): ~50%

CCCC[C@H](NC(=O)CNC(=O)[C@H](CO)NC(=O)CNC(=O)c1ccc(NN)nc1)C(=O)N[C@H]1CC(=O)NCCCC[C@@H](C(N)=O)NC(=O)[C@H](Cc2c[nH]c3ccccc23)NC(=O)[C@H](CCCNC(=N)N)NC(=O)[C@@H](Cc2ccccc2)NC(=O)[C@H](Cc2c[nH]cn2)NC1=O [technetium-99m labelled]
uptake (C57 mouse, B16/F1 melanoma, bone; intravenous, 2 h): 0.12 ± 0.13 %ID/g

CSCC[C@H](NC(=O)[C@H](CC(C)C)NC(=O)[C@H](Cc1c[nH]cn1)NC(=O)CNC(=O)[C@@H](NC(=O)[C@H](C)NC(=O)[C@H](Cc1c[nH]c2ccccc12)NC(=O)[C@H](CCC(N)=O)NC(=O)CCCCCNC(=O)CNC(=O)CNC(=O)CNC(=O)CSC(C)=O)C(C)C)C(N)=O [technetium-99m labelled]
tissue uptake (Swiss mouse, pancreas; intravenous, 18.5 MBq, 30 min): 2.78 ± 0.23 %ID/g

CC(C)C[C@H](NC(=O)[C@@H]1CCCN1C(=O)[C@H](CCCCN)NC(=O)[C@@H](N)CO)C(=O)N1CCC[C@H]1C(=O)N[C@@H](CCC(=O)O)C(=O)N[C@H](C(=O)N[C@H](C(=O)N[C@@H](CC(=O)O)C(=O)N[C@@H](CCC(=O)O)C(=O)N[C@@H](Cc1ccc(O)cc1)C(=O)N[C@@H](Cc1cn(CCOCCOCCOCCNC(=O)CCc2ccc(O)c(CN(CCN(CC(=O)O)Cc3cc(CCC(=O)NCCCC[C@H](NC(=O)N[C@@H](CCC(=O)O)C(=O)O)C(=O)O)ccc3O)CC(=O)O)c2)nn1)C(=O)O)[C@@H](C)O)C(C)C [gallium-68 labelled]
SUV (NMRI nu/nu mouse, LNCaP xenograft, brown adipose tissue; 135.34 nmol/kg, low molar activity): 0.06 g/g

N=C(N)NCCC[C@@H]1NC(=O)[C@H](CCCCNC(=O)CNC(=O)CNC(=O)CNC(=O)CC[C@H](NC(=O)CCOCCOCCOCCOCCNC(=O)CC[C@H](NC(=O)CN2CCN(CC(=O)O)CCN(CC(=O)O)CCN(CC(=O)O)CC2)C(=O)NCCOCCOCCOCCOCCC(=O)N[C@@H](CCC(=O)NCC(=O)NCC(=O)NCC(=O)NCCCC[C@@H]2NC(=O)[C@@H](Cc3ccccc3)NC(=O)[C@H](CC(=O)O)NC(=O)CNC(=O)[C@H](CCCNC(=N)N)NC2=O)C(=O)NCC(=O)NCC(=O)NCC(=O)NCCCC[C@@H]2NC(=O)[C@@H](Cc3ccccc3)NC(=O)[C@H](CC(=O)O)NC(=O)CNC(=O)[C@H](CCCNC(=N)N)NC2=O)C(=O)NCC(=O)NCC(=O)NCC(=O)NCCCC[C@@H]2NC(=O)[C@@H](Cc3ccccc3)NC(=O)[C@H](CC(=O)O)NC(=O)CNC(=O)[C@H](CCCNC(=N)N)NC2=O)NC(=O)[C@@H](Cc2ccccc2)NC(=O)[C@H](CC(=O)O)NC(=O)CNC1=O [indium-111 labelled]
tissue uptake (female athymic nude mice, liver; intravenous, 3 µCi, 72 h, U-87 MG glioma xenograft): 0.25 ± 0.06 %ID/g
